Assay results pooled from the literature.
Numbered parts are unrelated; each lists some results of a single study.
Sequence of UniProt Q00526 (whole entry, looked up): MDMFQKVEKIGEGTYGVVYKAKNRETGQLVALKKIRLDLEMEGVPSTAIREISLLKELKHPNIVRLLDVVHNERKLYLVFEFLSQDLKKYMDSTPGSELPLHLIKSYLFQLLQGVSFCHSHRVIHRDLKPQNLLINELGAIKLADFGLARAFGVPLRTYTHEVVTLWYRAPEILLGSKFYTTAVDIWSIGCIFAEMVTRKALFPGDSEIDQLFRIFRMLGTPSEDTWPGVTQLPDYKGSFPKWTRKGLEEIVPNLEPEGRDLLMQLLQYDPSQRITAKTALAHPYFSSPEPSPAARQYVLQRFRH
Sequence of UniProt O94804 (whole entry, looked up): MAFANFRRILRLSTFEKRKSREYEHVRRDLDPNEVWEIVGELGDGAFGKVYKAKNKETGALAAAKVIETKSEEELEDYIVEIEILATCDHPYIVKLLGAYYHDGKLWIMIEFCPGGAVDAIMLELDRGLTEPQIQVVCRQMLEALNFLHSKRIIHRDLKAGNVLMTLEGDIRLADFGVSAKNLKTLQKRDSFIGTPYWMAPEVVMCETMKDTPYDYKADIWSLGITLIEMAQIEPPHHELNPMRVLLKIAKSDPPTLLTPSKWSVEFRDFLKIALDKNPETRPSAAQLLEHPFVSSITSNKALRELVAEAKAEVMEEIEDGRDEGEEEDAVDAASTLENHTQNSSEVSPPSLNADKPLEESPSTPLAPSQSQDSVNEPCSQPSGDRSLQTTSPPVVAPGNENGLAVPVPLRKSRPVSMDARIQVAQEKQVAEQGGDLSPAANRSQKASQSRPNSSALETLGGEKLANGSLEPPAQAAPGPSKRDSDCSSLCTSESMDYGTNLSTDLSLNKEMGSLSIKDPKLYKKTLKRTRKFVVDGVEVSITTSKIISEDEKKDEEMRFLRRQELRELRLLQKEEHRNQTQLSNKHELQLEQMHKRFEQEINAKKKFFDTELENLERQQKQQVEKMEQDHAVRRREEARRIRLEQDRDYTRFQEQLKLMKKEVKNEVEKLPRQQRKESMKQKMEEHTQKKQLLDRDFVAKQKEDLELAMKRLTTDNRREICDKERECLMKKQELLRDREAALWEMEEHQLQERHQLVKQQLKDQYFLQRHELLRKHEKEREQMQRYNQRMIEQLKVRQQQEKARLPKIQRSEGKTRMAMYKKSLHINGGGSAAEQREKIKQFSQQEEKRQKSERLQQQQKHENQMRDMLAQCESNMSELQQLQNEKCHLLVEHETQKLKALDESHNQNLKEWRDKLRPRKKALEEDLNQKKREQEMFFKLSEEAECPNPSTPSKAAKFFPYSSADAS
Sequence of UniProt Q13131 (whole entry, looked up): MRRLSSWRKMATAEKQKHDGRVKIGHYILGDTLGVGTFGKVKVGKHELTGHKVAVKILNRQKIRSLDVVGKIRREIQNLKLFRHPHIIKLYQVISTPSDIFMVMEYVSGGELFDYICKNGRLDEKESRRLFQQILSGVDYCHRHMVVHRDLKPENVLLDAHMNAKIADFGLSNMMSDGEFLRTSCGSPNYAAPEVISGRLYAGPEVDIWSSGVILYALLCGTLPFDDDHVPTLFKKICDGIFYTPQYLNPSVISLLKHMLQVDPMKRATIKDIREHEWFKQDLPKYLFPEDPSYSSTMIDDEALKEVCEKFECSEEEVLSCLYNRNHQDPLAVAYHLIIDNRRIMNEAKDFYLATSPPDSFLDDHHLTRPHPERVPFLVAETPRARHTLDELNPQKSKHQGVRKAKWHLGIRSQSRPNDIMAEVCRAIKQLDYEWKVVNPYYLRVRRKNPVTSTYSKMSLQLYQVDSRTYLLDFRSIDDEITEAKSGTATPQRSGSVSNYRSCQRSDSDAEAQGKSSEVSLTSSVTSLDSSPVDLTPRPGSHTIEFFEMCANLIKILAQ
Sequence of UniProt Q99759 (whole entry, looked up): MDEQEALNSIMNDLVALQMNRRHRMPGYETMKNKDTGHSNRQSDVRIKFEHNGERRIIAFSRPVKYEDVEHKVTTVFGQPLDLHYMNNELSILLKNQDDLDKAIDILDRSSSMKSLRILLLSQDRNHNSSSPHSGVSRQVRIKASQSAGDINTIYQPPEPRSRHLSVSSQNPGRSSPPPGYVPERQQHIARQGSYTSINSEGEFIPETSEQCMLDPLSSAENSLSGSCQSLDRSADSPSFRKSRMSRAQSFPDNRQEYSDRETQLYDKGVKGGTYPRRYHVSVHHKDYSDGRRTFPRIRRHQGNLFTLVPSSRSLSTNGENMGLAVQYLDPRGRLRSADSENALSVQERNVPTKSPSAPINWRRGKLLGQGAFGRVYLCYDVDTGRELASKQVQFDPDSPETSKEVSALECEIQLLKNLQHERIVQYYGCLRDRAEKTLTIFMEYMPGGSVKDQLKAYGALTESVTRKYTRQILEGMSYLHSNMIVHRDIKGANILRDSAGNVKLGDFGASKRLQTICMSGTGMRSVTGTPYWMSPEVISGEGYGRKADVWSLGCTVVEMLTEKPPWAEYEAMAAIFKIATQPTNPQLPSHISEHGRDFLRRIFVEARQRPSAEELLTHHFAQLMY
Sequence of UniProt P37173 (whole entry, looked up): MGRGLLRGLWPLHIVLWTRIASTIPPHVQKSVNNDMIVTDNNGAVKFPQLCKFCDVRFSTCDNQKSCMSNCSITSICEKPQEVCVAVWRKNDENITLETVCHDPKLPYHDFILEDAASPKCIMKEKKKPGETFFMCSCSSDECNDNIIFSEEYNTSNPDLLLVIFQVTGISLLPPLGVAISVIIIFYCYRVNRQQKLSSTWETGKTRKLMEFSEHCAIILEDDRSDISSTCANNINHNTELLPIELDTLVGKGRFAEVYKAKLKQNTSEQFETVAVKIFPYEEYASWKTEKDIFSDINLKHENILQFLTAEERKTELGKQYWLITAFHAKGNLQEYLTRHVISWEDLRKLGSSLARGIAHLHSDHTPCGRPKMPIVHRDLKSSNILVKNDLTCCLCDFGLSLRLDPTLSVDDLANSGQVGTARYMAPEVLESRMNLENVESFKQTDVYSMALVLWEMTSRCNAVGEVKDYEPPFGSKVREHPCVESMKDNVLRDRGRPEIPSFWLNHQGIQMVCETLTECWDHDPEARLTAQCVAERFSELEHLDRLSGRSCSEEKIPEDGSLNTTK
Sequence of UniProt Q00535 (whole entry, looked up): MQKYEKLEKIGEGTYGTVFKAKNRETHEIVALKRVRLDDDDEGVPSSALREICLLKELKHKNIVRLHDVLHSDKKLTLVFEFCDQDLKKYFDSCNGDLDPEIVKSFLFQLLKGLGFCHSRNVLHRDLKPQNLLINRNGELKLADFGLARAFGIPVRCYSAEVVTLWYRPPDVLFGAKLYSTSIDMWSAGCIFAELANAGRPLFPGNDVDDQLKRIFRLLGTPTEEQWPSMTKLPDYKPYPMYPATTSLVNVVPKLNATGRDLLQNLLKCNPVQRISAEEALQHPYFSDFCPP
Sequence of UniProt P51955 (whole entry, looked up): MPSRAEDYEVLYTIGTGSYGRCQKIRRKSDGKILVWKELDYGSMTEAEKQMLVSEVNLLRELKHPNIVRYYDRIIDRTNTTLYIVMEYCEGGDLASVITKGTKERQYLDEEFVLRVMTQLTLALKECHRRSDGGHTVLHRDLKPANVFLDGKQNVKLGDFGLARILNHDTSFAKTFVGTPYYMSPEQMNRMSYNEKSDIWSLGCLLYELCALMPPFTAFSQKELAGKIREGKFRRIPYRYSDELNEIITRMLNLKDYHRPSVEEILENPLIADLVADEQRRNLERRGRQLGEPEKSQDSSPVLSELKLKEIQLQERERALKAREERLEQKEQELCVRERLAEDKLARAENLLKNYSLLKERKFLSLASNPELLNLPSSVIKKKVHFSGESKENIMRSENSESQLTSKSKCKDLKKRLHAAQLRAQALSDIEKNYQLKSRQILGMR

Sample 1 — method: protein-binding microarray; form: double-stranded DNA, one strand shown; medium: in vitro; concentration: 0.8 µM; notes: whole 60-bp probe, no competitor; reading: higher = stronger binding; shared flanks, not repeated: … GTCTTGATTCGCTTGACGCTGCTG
Target: Centromere-binding protein 1, full length, N-terminal tag (CBF1, Saccharomyces cerevisiae, UniProt P17106, residues 1-351)
Sequence of UniProt P17106 (whole entry, looked up): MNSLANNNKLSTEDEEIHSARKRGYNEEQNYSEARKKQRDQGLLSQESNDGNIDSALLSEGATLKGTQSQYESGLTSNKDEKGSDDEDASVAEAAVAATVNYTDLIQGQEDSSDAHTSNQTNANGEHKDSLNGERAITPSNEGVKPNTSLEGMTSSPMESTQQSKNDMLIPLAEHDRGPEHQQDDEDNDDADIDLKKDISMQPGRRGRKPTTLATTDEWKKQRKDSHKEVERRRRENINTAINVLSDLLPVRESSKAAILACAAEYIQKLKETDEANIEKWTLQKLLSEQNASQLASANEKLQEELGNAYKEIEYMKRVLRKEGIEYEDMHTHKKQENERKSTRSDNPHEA
Strand | fluorescence intensity [a.u.]
GAACTTCGTGAAACACGTGGGATACCGGTTAGGTAG | 3850
CTATACCTAATATATACCACCACCGTCAAGGGGTTC | 497
CCTAACTACTATAGTCACACCATATAGCTTCGTACA | 633
GAAGAAAGCAATGCTGATGATGTACCACAAAGTTAG | 552
GAACTCAATTGGAGTCACGCTGCCGTGAGCATCTAG | 1300
GAAACTATGCAATGTCACACGCCCCTTTTCCGGTAG | 629
GAAACAACGTGCGTCCATGTGCAAGAACAAGTATAG | 707
GAACATCATCATTTAATCATGATGATAATATTGTAG | 561

Sample 2 — method: RNA Bind-n-Seq; form: RNA; medium: in vitro; concentration: 20 nM; notes: 6-mer, flanks averaged, single round; together with: 150 mM LiCl; reference: input library; reading: higher = stronger binding
Target: TAR DNA-binding protein 43, full length, His tag (TARDBP, Homo sapiens, UniProt Q13148, residues 1-414)
Strand | 6-mer enrichment (R)
GUCGGA | 1.16
GACAAU | 0.868
CAAAAA | 0.837
UCAGAC | 0.797
CAGACA | 0.819
UUGUUU | 1.5
AAGCCC | 0.927
GUACGA | 0.936

Sample 3 — observed: enzyme activity; action: inhibitor; concentration: 0.5 µM; reference: control
SMILES: CCCC(=O)Oc1ccc2[nH]c(C(=O)c3cc4ccccc4[nH]3)cc2c1
target | remaining activity [%]
Protein kinase C beta type, isoform beta-I (PRKCB, Homo sapiens, UniProt P05771) | 97.3
CAMK2D (Homo sapiens, UniProt Q13557) | 111
TGFBR2 (Homo sapiens, UniProt P37173) | 101
STK11 (Homo sapiens, UniProt Q15831) | 101
NEK2 (Homo sapiens, UniProt P51955) | 86.8
Cyclin-dependent kinase 5, with p25 (CDK5, Homo sapiens, UniProt Q00535) | 90.1
STK10 (Homo sapiens, UniProt O94804) | 94.3
MAP3K3 (Homo sapiens, UniProt Q99759) | 91.9
PRKCA (Homo sapiens, UniProt P17252) | 102

Sample 4 — observed: cell-free assay; method: competition with immobilised ligand; concentration: 1 µM
SMILES: CC(=O)c1c(NS(C)(=O)=O)c2cc(-c3ccc(Cl)cc3)c(-c3ccc(Cl)cc3Cl)nc2n(C)c1=O
target | remaining binding [%]
CAMK1D (Homo sapiens, UniProt Q8IU85) | 100
PRKAA1 (Homo sapiens, UniProt Q13131) | 100
CDK3 (Homo sapiens, UniProt Q00526) | 100
MINK1 (Homo sapiens, UniProt Q8N4C8) | 100
